Assay results collected from several papers.
Lines come from different studies, so protocols differ. Values joined by “and” are separate records of one study, mostly repeats; a detail may differ. ± gives the spread as reported.

SMILES | tested on | assay | system | setting | scale | measurement | value
CC(C)C[C@H](NC(=O)[C@H](C)NC(=O)[C@@H](NC(=O)[C@H](CCCNC(=N)N)NC(=O)[C@H](CC(C)C)NC(=O)[C@H](Cc1c[nH]c2ccccc12)NC(=O)[C@@H]1CCCN1C(=O)[C@@H](N)CCCCN)C(C)C)C(=O)N[C@@H](CS)C(=O)N1CCC[C@H]1C(=O)NCC(=O)O | A549 | WST-1 | – | 64 µM, 24 h | – | viability | 87.9% and 94.2% and 87.3%
Cc1ccc2[nH]c3c(c2c1)CCCC3NCCc1ccc(O)cc1 (stereo not drawn) | A549 | – | – | 50 µM, 23 h | – | non-viable cells | 5.9 ± 7.1%
CC(C)(C)NCC(O)COc1cccc2c1CCC(=O)N2 (stereo not drawn) | A549 | MTT | – | 72 h | – | CC50 | 133 to 400 µM
O=C(NCCCNc1nc(Nc2cccc(NC(=O)N3CCCC3)c2)ncc1I)c1cccs1 | human coronavirus OC43 | virus-induced cell killing | MRC-5 | maximum over 10 doses | – | maximum inhibition | 0%
Cc1ccc2[nH]c3c(c2c1)CCCC3NCCc1ccc(F)cc1 (stereo not drawn) | A549 | – | – | 50 µM, 23 h | – | non-viable cells | 13.8 ± 14.9%
COc1ccc([C@@]23Oc4cc(OC)cc(OC)c4[C@@]24NC(C)=N[C@@]4(O)[C@H](C(=O)N(C)OC)[C@H]3c2ccccc2)cc1 | A549 | – | – | concentration not given | – | viability | 50%
Br.O=[N+]([O-])c1nccn1CC(O)CNCCBr (stereo not drawn) | A549 | – | – | 4 h anoxic | relative to: oxic IC50 over anoxic IC50 | hypoxic cytotoxicity ratio | > 3.4
Cc1ccc2[nH]c3c(c2c1)CCCC3NCCc1ccccc1 (stereo not drawn) | A549 | – | – | 50 µM, 23 h | – | non-viable cells | 17.3 ± 14.7%
Cc1cn[nH]c1 | human coronavirus OC43 | virus-induced cell killing | MRC-5 | screen | – | maximum inhibition | 19%
C[n+]1ccc(-c2cc[n+](C)cc2)cc1 | A549 | – | – | concentration not given | relative to: untreated control | viability | 35.4% and 42.7% and 33.2% and 25.1% and 27.3%
CC(=O)N[C@@H](CCC(=O)O)C(=O)N[C@@H](CCC(N)=O)C(=O)N[C@@H](CCC(N)=O)C(=O)N[C@@H](CC(C)C)C(=O)N[C@@H](CCCCN)C(=O)N[C@@H](Cc1ccc(O)cc1)C(=O)N[C@@H](Cc1ccccc1)C(=O)N[C@@H](CC(C)C)C(=O)N[C@@H](CCC(=O)O)C(=O)N[C@@H](CCCNC(=N)N)C(=O)N[C@@H](Cc1ccccc1)C(=O)N[C@@H](C)C(=O)N[C@@H](CCC(=O)O)C(=O)N[C@@H](CCC(N)=O)C(=O)N[C@@H](CC(C)C)C(=O)N[C@@H](CCC(=O)O)C(=O)N[C@@H](CCC(N)=O)C(=O)N[C@@H](CC(C)C)C(=O)N[C@@H](Cc1ccccc1)C(=O)N[C@@H](Cc1ccc(O)cc1)C(=O)N[C@@H](CCC(N)=O)C(=O)N[C@@H](CO)C(=O)N[C@@H](CO)C(N)=O | A549 | – | – | 500 µM | – | cytotoxicity | not toxic
CC[C@H](C)[C@H](NC(=O)[C@H](CCCCN)NC(=O)[C@H](CCCCN)NC(=O)[C@H](Cc1ccccc1)NC(=O)[C@@H](NC(=O)[C@@H](NC(=O)[C@H](CCCNC(=N)N)NC(=O)[C@H](Cc1ccccc1)NC(=O)[C@@H](NC(=O)[C@H](CCCCN)NC(=O)[C@H](CCCCN)NC(=O)[C@@H](N)CCSC)[C@@H](C)CC)C(C)C)[C@@H](C)CC)C(=O)N[C@@H](CC(C)C)C(=O)N[C@@H](CCCCN)C(=O)N[C@@H](CCCNC(=N)N)C(=O)N[C@@H](CC(C)C)C(=O)N[C@H](C(=O)N[C@H](C(=O)O)C(C)C)[C@@H](C)CC | A549 | CCK-8 | – | 64 µg/mL, 24 h | – | viability | 20.6%

For quick reference, copied from above:
SMILES | tested on | assay | system | setting | scale | measurement | value
O=C(NCCCNc1nc(Nc2cccc(NC(=O)N3CCCC3)c2)ncc1I)c1cccs1 | human coronavirus OC43 | virus-induced cell killing | MRC-5 | maximum over 10 doses | – | maximum inhibition | 0%
